Assay results from different studies.

CC(C)NC(=O)N1CC=C(c2cc3c(Nc4ccc5scnc5c4)ncnc3s2)CC1  concentration (BALB/c mouse, plasma; oral, 10 mg/kg, 2 h): 0.82 ng/mL
Brc1ccccc1-c1nnc(CSc2nnnn2-c2ccccc2)o1  concentration (male C57BL/6 mouse, brain; intraperitoneal, 10 mg/kg, 24 h): 40 nM
CC(C)C(=O)NC1CC=C(c2cc3c(Nc4ccc5scnc5c4)ncnc3s2)CC1 (centres unmarked)  concentration (BALB/c mouse, plasma; oral, 10 mg/kg, 30 min): 959 ng/mL
CCC(=O)N(C)c1ccc(Cl)c(Cl)c1  concentration (mouse, plasma; subcutaneous, 40 mg/kg, 15 min): 4200 nM
CC(C)NC(=O)N1CC=C(c2cc3c(Nc4ccc5scnc5c4)ncnc3s2)C1  concentration (BALB/c mouse, plasma; oral, 10 mg/kg, 6 h): 52.8 ng/mL
C#CCN(CCCNC(=O)CCCCC[N+]1=C(/C=C/C2=C(Cl)C(=C/C=C3\N(CCCCCC(=O)[O-])c4ccccc4C3(C)C)/CCC2)C(C)(C)c2ccccc21)CCCOc1ccc(Cl)cc1Cl  concentration (C57BL/6 mouse, plasma; intravenous, 5 mg/kg, 1 h): 590 ng/mL
COc1cccc(C2CC(c3ccccc3Cl)Nc3nc(N)nn32)c1 (centres unmarked)  concentration (male CD-1 mouse, plasma; intraperitoneal, 20 mg/kg, 1 h, single dose): 95000 nM
CC(C)(O)c1ccc(N2Cc3c(ccnc3-c3ccc(F)cc3OCC(F)(F)F)C2=O)cc1  concentration (male C57BL/6 mouse, plasma; oral, 1 mg/kg, 6 h): ~167 nM
CC(C)Cn1c(SCC(=O)N2CCc3ccccc3C2)nc2cc(Cl)ccc2c1=O  concentration (male C57BL/6 mouse, brain; intraperitoneal, 10 mg/kg, 4 h): 245 nM
Cc1c(C(=O)Nc2ccn(C)n2)ncn1Cc1cccc(C(F)(F)F)c1  concentration (C57BL/6 mouse, brain; oral, 10 mg/kg, 7 h, single dose): 121 ng/mL
COc1cnc2cccc(N3CCc4c(cc(Cn5ccnc5)cc4-c4cn(C)nc4C(F)(F)F)C3=O)c2c1  concentration (female nude mouse, tumour; intraperitoneal, 100 mg/kg, 6 h, single dose, tumour-bearing): 23300 ng/g

Some of these lines once more:
CC(C)NC(=O)N1CC=C(c2cc3c(Nc4ccc5scnc5c4)ncnc3s2)C1  concentration (BALB/c mouse, plasma; oral, 10 mg/kg, 6 h): 52.8 ng/mL
C#CCN(CCCNC(=O)CCCCC[N+]1=C(/C=C/C2=C(Cl)C(=C/C=C3\N(CCCCCC(=O)[O-])c4ccccc4C3(C)C)/CCC2)C(C)(C)c2ccccc21)CCCOc1ccc(Cl)cc1Cl  concentration (C57BL/6 mouse, plasma; intravenous, 5 mg/kg, 1 h): 590 ng/mL
